Measurements collected from several papers.
Compare with care: the assays were run in different laboratories.
Technique: steady-state kinetics
B1: PDE4A (Homo sapiens, UniProt P27815); chain NIPRFGVKTDQEELLAQELENLNKWGLNIFCVSDYAGGRSLTCIMYMIFQERDLLKKFRIPVDTMVTYMLTLEDHYHADVAYHNSLHAADVLQSTHVLLATPALDAVFTDLEILAALFAAAIHDVDHPGVSNQFLINTNSELALMYNDESVLENHHLAVGFKLLQEDNCDIFQNLSKRQRQSLRKMVIDMVLATDMSKHMTLLADLKTMVETKKVTSSGVLLLDNYSDRIQVLRNMVHCADLSNPTKPLELYRQWTDRIMAEFFQQGDRERERGMEISPMCDKHTASVEKSQVGFIDYIVHPLWETWADLVHPDAQEILDTLEDNRDWYYSAI
B2: enzyme (Streptomyces albidoflavus, UniProt K0J3J2); chain AAGGYVALGDSYSSGVGAGSYDSGSGDCRRTPKAYPALWAAANSPASFDFVACSGAVTSDVLNKQMGPLNSSTSLVSLTIGGNDAGFADVMTTCVLQSEANCIARVNTAKAFVESTLPGRLDSVYSQVRAKAPSANVVVLGYPRFYKLNGTCVAGLTEGERTAINGAADLLNSVISKRAADHGYAYGDIAAAFTGHEICSGDSWLHSVKWTGINDSYHPTAAGQSGGYLPVLNSKA
B3: CPN1 (Homo sapiens, UniProt P15169); chain VTFRHHRYDDLVRTLYKVQNECPGITRVYSIGRSVEGRHLYVLEFSDHPGIHEPLEPEVKYVGNMHGNEALGRELMLQLSEFLCEEFRNRNQRIVQLIQDTRIHILPSMNPDGYEVAAAQGPNKPGYLVGRNNANGVDLNRNFPDLNTYIYYNEKYGGPNHHLPLPDNWKSQVEPETRAVIRWMHSFNFVLSANLHGGAVVANYPYDKSFEHRVRGVRRTASTPTPDDKLFQKLAKVYSYAHGWMFQGWNCGDYFPDGITNGASWYSLSKGMQDFNYLHTNCFEITLELSCDKFPPEEELQREWLGNREALIQFLEQVHQGIKGMVLDENYNNLANAVISVSGINHDVTSGDHGDYFRLLLPGIYTVSATAPGYDPETVTVTVGPAEPTLVNFHLKRSIPQVSPVRRAPSRRHGVRAKVQPQARKKEMEMRQLQRGPA
B4: Ptgds (Mus musculus, UniProt O09114); chain QGHDTVQPNFQQDKFLGRWYSAGLASNSSWFREKKAVLYMCKTVVAPSTEGGLNLTSTFLRKNQCETKIMVLQPAGAPGHYTYSSPHSGSIHSVSVVEANYDEYALLFSRGTKGPGQDFRMATLYSRTQTLKDELKEKFTTFSKAQGLTEEDIVFLPQPDKCIQE
B5: nitrilase Y142F (Rhodococcus rhodochrous, UniProt A4LA85); chain MVEYTNTFKVAAVQAQPVWFDAAKTVDKTVSIIAEAARNGCELVAFPEVFIPGYPYHIWVDSPLAGMAKFAVRYHENSLTMDSPHVQRLLDAARDHNIAVVVGISERDGGSLYMTQLIIDADGQLVARRRKLKPTHVERSVFGEGNGSDISVYDMPFARLGALNCWEHFQTLTKYAMYSMHEQVHVASWPGMSLYQPEVPAFGVDAQLTATRMYALEGQTFVVCTTQVVTPEAHEFFCENEEQRKLIGRGGGFARIIGPDGRDLATPLAEDEEGILYADIDLSAITLAKQAADPVGHYSRPDVLSLNFNQRRTTPVNTPLSTIHATHTFVPQFGALDGVRELNGADEQRALPSTHSDETDRATASI
B6: enzyme (Drosophila melanogaster, UniProt P82890); chain MVRKVLMICLGNICRSPIAEVVMVDTLEKANVKDVEVDSAAIGGWHVGNRADPRAISTLQKHGLKCTHIVRQIRKQDFSEFDYIFGMDEDNMSELRRLAPKGSKAELLMLGDFGLEKKNRIIEDPYYERGAEGFETAYQQCVVACAAFMKERLQK
B7: enzyme (Thermotoga maritima, UniProt Q9WZV7); chain VENVTESKELERLKRIDRMKTEFIANISHELRTPLTAIKAYAETIYNSLGELDLSTLKEFLEVIIDQSNHLENLLNELLDFSRLERKSLQINREKVDLCDLVESAVNAIKEFASSHNVNVLFESNVPCPVEAYIDPTRIRQVLLNLLNNGVKYSKKDAPDKYVKVILDEKDGGVLIIVEDNGIGIPDHAKDRIFEQFYRVDSSLTYEVPGTGLGLAITKEIVELHGGRIWVESEVGKGSRFFVWIPKDRAGEDNRQDN
B8: protein (Rhodopseudomonas palustris, UniProt Q6N3R9); chain MSNVRVLATDLAFPEGPVVMPDGSVVLVEIRAQQLTRVWPDGRKEVVAKVPGGPNGAALGPDGKMYICNNGGFGWFPSRGTMMPGAPAPHEYIGGSIQRVDLQSGEVETLFDKCGEHPLKGPNDLVFDKHGGLWFTDLGKRRARDMDVGAAYYIKPGMTEITEQVFGTLPLNGIGLSPDEATMYAAETPTGRLWAFDLSGPGEVKPRDVIYRGEKGKPICGLGGYQMFDSLAVEASGNVCVATLVSGCISVIAPDGTLVEQVPTGDRVTTNIAFGGPDLKTAYITLSGKGELIAMDWSRPGLPLNFLNK
B9: enzyme H189D (Acetivibrio thermocellus, UniProt A3DJ38); chain MKLTIPELSLVVLIGSSGSGKSTFAKKHFKPTEVISSDFCRGLVSDDENDQTVTGAAFDVLHYIVSKRLQLGKLTVVDATNVQESARKPLIEIAKDYHCFPVAVVFNLPEKVCQERNKNRTDRQVEEYVIRKHTQQLKKSIKGLQREGFRYVYILNSPEEVEEVVFERQPLWNNKKDEHGPFDIIGDIDGCYDELKMLLEKLGYLIEEVEGGVGSGKYRVTHPEGRKVLFLGDLVDRGPKITEVLKLVMGMVKSGIALCVPGNHDVKLLRKLNGRDVQITHGLDRTLEQLAKEPQEFIEEVKAFIDGLVSHYVLDDGKLVVAHAGMKEEFQGRGSGKVREFALYGETTGETDEYGLPVRYDWASDYRGKALVVYGHTPQAEVLKVNNTINIDTGCVFGGKLTAYRYPEREIVDVKALKTYYEPAKPFLPKEDMAERFEARTDNDILDINDVLGKKIITTRLMSSITIHEENSIAALEVMSRFAADPHWLIYLPPTMSPCETSKKEGMLEHPIEAFEYFRTRGVGKVVCEQKHMGSRAVVIVCKDSQVAEKRFGVLDGTAGICYTRTGRHFFDDMQLEAELIDRVRKVLDKSGFWGDFNTDWVCLDCELMPWSAKAQKLLEEQYSAVGISGRVVLDEAVKLLKQASLNKTVSFDVSRQTSGKNADINELLQRFTERSEMMQKYVEAYRKYCWPVNSIDDLKLAPFHILATEGKVHSDKNHIWHMDTIAKYCTQDDSLIMATNHILVDVTDAESVDKGIKWWEDLTASGGEGMVVKPYDFIVKNGRELLQPAVKCRGREYLRIIYGPEYTMDENIERLRNRAVGKKRSLALREFSLGMEALERFVRNEPLYRVHECVFGVLALESEPVDPRL
B10: ATIC (Cryptococcus neoformans, UniProt J9VJP1); chain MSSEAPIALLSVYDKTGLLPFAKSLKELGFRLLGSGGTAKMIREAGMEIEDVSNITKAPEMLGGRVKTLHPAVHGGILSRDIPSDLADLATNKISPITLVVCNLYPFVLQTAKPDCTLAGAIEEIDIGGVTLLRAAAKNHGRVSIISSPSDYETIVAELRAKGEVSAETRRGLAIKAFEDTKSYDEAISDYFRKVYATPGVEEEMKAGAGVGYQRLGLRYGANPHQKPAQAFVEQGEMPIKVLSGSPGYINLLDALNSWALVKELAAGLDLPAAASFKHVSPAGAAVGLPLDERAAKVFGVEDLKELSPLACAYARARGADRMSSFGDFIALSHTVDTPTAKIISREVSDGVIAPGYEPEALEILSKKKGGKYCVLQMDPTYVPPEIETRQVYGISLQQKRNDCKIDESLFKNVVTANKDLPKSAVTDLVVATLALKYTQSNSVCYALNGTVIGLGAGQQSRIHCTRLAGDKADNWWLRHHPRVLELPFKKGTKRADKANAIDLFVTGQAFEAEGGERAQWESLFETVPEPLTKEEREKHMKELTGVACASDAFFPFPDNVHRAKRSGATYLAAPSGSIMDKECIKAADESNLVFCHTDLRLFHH
B11: enzyme L163H/N249W (Thermobifida fusca, UniProt Q47RK4); chain MTDVYILDAVRTPFGRYGGALSGIRPDDLAAHVLRALAERSPGLDPAAVDDVFFGDANGAGEDNRNVARMAALLAGWPTSVPGVTLNRLCGSGMESVIAANRAIAVGDASLAVAGGVESMSRAPWVLPKPAQGFPTGHETLYSTTLGWRMVNPAMPEQWTVSHGESTEQVAATYGISRAEQDAFALRSHERAARAWAEGVFDAEITQIPGAELERDESIRETSAEKLAALKPAFRPDGTITAGNASPLWDGAAALLIGDAAAAERVGREPLARIVSRGVAAVDPDVFGIGPVQAAEIALRRAGIGWDDLSVVELNEAFAAQSLACLKLWPDLDPEIVNPNGGAIAIGHPLGASGARIVGTLAHELHRRGGGWGLAAICIGVGQGLAVVLHR
UniProt J7SZ64, sequence (whole entry, looked up): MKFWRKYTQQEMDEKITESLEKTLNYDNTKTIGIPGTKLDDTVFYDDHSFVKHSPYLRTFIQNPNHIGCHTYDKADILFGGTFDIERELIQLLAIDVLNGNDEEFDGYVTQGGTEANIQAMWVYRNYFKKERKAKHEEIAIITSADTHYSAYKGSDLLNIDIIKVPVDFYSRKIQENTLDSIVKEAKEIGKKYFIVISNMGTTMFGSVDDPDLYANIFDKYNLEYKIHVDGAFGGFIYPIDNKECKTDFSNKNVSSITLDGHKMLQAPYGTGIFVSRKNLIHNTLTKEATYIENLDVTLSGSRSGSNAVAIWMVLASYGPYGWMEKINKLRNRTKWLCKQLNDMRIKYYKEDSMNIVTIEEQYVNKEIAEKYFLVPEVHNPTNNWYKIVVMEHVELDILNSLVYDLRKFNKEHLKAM
UniProt P76562, sequence (whole entry, looked up): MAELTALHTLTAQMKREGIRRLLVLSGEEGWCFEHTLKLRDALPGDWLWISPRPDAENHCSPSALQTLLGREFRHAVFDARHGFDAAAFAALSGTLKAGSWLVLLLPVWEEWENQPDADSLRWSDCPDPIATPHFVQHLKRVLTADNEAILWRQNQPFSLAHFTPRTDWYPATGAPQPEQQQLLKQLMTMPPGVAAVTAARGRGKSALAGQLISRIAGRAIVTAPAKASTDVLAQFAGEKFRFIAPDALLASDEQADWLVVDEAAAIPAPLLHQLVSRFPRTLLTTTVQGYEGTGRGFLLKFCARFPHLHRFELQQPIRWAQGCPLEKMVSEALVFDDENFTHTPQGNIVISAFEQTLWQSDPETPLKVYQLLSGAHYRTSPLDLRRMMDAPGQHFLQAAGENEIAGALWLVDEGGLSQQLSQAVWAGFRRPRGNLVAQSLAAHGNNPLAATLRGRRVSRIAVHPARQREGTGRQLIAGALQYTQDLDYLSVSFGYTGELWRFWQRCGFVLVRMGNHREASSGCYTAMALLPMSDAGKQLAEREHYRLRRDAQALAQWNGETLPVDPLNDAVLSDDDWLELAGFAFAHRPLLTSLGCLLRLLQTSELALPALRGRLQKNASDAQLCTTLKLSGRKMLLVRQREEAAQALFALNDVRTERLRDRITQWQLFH

B1 (PDE4A) — Km (Nc1ncnc2c1ncn2[C@@H]1O[C@@H]2COP(=O)(O)O[C@H]2[C@H]1O; pH 7.5, 21 °C): 24 µM
B2 (enzyme) — Km (CCCCCCCC/C=C\CCCCCCCC(=O)O[C@H](COC(=O)CCCCCCCCCCCCCCC)COP(=O)(O)O; pH 7.2, 50 °C, apparent): 2380 µM
L-lactate oxidase (Aerococcus viridans, UniProt Q44467) — Km (O=C1C(Cl)=CC(=Nc2ccc(O)cc2)C=C1Cl; pH 6.5, 22 °C, varied electron acceptor, apparent, together with: L-lactic acid 200 mM): 1600 µM
B3 (CPN1) — Km (C[C@H](NC(=O)[C@H](Cc1ccccc1)NC(=O)[C@H](CCC(N)=O)NC(=O)CNC(=O)[C@@H]1CCCN1C(=O)[C@H](Cc1ccccc1)NC(=O)[C@@H](N)Cc1ccc(O)cc1)C(=O)N[C@@H](Cc1ccccc1)C(=O)N[C@@H](CO)C(=O)N[C@@H](CCCCN)C(=O)O; 37 °C): 171 µM
B4 (Ptgds) — Km ([H][C@]12C[C@]([H])(OO1)[C@H](C/C=C\CCCC(=O)O)[C@H]2/C=C/[C@@H](O)CCCCC; pH 8, 25 °C): 0.8 µM
B5 (nitrilase Y142F) — Km (N#CCCCC#N; pH 7.5, 25 °C): 1560 µM
aromatic amino acid decarboxylase (Clostridium sporogenes, UniProt J7SZ64) — Km (N[C@@H](Cc1c[nH]c2c(Cl)cccc12)C(=O)O; pH 7, 37 °C, not purified, together with: PLP 40 µM): 4500 µM
azu N30H/N36H/Q34H (Pseudomonas aeruginosa) — Km (O=NO; pH 6.35): 35000 µM
OXA-48 (Klebsiella pneumoniae, UniProt Q6XEC0) — Km (CC(=O)OCC1=C(C(=O)O)N2C(=O)[C@@H](NC(=O)Cc3cccs3)[C@H]2SC1; pH 7.2, 30 °C): 140 µM
B6 (enzyme) — Km (O=[N+]([O-])c1ccc(OP(=O)(O)O)cc1; pH 6): 520 µM
B7 (enzyme) — Km (C#CCSP(=O)(O)OP(=O)(O)OP(=O)(O)OC[C@H]1O[C@@H](n2cnc3c(N)ncnc32)[C@H](O)[C@@H]1O; apparent): 29 µM
tmcA (Escherichia coli, UniProt P76562) — Km (Nc1ncnc2c1ncn2[C@@H]1O[C@H](COP(=O)(O)OP(=O)(O)OP(=O)(O)O)[C@@H](O)[C@H]1O; pH 7.8, 10 mM KCl, no tRNA, no acetyl-CoA, together with: MgCl2 10 mM): 2.93 µM
B8 (protein) — Km (CCCCCCCCOC(C)=O; pH 8.3, NaCl 150 mM, no saturation, together with: CaCl2 1 mM): 1250 µM
B9 (enzyme H189D) — Km (Nc1ncnc2c1ncn2[C@@H]1O[C@H](CO)[C@H]2OP(=O)(O)O[C@H]21; pH 7.5, 45 °C): 20000 µM
B10 (ATIC) — Km (NC(=O)c1ncn([C@@H]2O[C@H](COP(=O)(O)O)[C@@H](O)[C@H]2O)c1N; pH 7.5, 37 °C, KCl 25 mM, apparent, together with: N10-formyl-tetrahydrofolate 0.1 mM): 130 µM
B11 (enzyme L163H/N249W) — Km (CC(=O)SCCNC(=O)CCNC(=O)[C@H](O)C(C)(C)COP(=O)(O)OP(=O)(O)OC[C@H]1O[C@@H](n2cnc3c(N)ncnc32)[C@H](O)[C@@H]1OP(=O)(O)O; pH 7.4, 37 °C): 2190 µM

Some of these lines once more:
tmcA (Escherichia coli, UniProt P76562) — Km (Nc1ncnc2c1ncn2[C@@H]1O[C@H](COP(=O)(O)OP(=O)(O)OP(=O)(O)O)[C@@H](O)[C@H]1O; pH 7.8, 10 mM KCl, no tRNA, no acetyl-CoA, together with: MgCl2 10 mM): 2.93 µM
